Experimental data pooled from the literature.
Every numbered part comes from another study and shows a few of its results, in no order. Substitutions count along the parent as printed.
Sequence of UniProt P07949 (whole entry, looked up): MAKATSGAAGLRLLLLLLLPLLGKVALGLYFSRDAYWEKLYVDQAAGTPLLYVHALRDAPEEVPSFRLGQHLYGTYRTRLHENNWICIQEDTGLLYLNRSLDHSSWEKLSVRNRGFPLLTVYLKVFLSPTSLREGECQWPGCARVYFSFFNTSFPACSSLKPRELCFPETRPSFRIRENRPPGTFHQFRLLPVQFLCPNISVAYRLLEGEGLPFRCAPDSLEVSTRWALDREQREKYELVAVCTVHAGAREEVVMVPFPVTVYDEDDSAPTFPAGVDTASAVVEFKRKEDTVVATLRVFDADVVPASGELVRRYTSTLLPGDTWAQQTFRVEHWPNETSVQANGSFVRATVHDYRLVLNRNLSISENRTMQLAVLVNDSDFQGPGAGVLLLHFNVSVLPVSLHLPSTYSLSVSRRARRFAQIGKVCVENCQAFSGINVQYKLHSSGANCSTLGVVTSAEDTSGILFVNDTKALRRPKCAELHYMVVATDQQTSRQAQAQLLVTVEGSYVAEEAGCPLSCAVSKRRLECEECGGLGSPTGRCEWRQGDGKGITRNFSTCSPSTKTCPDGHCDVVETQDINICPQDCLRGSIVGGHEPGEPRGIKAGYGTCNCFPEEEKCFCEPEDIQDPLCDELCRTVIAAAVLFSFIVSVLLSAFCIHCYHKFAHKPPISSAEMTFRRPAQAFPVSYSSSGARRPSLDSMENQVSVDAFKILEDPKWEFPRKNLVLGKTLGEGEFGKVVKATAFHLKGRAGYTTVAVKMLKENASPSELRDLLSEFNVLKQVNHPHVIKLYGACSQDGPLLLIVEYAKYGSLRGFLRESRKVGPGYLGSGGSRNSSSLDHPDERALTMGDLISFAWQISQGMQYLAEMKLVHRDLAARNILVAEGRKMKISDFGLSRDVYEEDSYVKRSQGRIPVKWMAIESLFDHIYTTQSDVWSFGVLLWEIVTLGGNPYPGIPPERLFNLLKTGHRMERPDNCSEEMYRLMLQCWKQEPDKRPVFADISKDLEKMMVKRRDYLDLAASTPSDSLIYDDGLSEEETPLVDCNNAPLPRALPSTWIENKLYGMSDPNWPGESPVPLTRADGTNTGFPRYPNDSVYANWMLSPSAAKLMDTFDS
Sequence of UniProt Q96PN8 (whole entry, looked up): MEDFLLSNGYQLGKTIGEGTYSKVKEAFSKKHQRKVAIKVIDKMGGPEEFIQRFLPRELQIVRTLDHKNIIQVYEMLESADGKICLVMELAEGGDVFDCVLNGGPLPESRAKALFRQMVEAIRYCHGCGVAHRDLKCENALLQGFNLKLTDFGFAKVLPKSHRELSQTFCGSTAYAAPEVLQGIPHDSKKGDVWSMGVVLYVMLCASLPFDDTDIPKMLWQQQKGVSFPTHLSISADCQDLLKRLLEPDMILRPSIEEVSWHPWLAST
Sequence of UniProt P29320 (whole entry, looked up): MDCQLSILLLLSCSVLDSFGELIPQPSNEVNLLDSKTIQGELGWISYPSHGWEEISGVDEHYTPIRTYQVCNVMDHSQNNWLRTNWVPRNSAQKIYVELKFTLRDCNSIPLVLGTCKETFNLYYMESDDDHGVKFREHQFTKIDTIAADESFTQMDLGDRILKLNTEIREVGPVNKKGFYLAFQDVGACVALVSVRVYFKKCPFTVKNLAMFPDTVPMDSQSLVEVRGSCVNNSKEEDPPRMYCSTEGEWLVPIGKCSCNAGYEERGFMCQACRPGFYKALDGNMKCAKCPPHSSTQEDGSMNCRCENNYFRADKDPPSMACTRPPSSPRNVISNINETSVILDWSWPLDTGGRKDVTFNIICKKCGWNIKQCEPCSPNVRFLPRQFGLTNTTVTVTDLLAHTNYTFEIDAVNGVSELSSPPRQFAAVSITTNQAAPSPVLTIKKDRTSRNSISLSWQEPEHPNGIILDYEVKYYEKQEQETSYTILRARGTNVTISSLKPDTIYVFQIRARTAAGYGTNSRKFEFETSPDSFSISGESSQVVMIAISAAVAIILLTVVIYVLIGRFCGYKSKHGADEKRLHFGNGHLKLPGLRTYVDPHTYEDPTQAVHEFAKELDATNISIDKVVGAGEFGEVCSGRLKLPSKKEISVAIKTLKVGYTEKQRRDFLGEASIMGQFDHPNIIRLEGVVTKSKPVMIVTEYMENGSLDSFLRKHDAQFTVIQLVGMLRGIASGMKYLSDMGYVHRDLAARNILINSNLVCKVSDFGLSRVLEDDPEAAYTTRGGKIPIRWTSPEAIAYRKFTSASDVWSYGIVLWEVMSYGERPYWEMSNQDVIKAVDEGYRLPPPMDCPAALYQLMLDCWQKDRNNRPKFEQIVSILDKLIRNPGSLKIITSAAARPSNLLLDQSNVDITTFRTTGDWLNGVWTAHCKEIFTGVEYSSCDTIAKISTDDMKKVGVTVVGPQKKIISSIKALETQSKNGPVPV
Sequence of UniProt P48736 (whole entry, looked up): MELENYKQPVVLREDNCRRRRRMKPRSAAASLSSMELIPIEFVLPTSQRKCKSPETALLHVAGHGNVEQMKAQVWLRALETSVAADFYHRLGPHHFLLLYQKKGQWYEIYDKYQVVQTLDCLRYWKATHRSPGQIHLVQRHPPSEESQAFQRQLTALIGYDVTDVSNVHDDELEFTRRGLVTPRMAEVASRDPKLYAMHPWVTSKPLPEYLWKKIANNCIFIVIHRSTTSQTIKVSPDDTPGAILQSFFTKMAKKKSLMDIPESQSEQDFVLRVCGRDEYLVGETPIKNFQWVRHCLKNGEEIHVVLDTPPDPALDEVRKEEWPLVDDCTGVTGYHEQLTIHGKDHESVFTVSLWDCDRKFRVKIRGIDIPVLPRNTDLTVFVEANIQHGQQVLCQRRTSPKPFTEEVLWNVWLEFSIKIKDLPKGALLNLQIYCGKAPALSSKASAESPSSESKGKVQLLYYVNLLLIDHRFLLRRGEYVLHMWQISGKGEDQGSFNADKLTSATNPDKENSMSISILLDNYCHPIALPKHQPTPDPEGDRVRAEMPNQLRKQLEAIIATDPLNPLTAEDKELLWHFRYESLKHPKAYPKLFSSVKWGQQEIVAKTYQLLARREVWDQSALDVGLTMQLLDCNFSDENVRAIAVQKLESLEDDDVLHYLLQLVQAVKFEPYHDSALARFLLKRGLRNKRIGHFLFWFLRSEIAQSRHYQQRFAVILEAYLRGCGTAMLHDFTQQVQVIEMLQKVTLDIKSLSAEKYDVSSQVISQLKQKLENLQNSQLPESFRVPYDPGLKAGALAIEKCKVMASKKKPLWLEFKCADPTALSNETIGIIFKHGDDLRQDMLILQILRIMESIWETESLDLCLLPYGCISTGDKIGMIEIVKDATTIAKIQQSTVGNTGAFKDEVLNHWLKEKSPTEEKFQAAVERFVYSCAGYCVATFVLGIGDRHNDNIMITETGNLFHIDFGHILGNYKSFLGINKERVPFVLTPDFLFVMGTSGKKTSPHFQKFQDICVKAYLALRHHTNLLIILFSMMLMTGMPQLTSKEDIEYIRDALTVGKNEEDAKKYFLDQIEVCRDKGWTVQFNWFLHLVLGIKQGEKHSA
Sequence of UniProt Q8N4C8 (whole entry, looked up): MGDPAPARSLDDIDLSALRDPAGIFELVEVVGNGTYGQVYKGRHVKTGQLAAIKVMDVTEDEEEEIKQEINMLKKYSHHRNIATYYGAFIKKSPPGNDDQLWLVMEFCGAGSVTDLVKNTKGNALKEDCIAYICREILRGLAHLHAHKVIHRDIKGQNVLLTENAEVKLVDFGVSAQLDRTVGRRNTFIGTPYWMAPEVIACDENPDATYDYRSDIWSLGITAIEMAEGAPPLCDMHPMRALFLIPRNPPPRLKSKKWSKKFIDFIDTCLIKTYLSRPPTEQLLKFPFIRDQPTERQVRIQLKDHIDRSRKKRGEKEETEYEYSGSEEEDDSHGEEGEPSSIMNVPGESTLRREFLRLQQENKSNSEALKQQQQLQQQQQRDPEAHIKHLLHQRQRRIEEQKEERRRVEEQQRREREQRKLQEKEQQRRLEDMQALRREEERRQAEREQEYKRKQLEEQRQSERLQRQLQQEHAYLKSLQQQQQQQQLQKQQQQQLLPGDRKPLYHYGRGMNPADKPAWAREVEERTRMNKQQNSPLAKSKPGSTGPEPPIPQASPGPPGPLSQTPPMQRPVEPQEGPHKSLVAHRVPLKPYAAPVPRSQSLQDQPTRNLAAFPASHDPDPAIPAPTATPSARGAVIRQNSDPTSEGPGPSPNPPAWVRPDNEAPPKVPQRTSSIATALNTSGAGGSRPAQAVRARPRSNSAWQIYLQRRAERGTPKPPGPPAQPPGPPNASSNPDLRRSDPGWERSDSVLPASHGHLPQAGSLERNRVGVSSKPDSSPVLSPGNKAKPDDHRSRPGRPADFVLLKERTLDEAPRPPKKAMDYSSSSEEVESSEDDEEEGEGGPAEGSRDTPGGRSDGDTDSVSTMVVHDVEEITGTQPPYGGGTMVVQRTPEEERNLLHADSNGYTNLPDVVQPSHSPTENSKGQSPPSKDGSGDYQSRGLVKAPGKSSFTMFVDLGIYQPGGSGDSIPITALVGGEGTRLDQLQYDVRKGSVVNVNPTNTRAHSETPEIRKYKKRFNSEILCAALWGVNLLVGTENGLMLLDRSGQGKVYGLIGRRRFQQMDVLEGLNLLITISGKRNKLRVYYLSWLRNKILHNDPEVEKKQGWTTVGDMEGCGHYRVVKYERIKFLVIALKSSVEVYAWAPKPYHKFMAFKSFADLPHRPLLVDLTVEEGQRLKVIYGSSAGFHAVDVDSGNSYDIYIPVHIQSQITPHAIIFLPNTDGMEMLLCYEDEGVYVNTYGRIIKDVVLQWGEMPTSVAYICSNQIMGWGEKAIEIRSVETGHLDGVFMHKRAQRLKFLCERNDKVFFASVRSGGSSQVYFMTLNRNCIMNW

Study 1 — partner: H2BC21 (Homo sapiens, UniProt Q16778); method: cross-linking MS; notes: hits only
`Histone H2B type 1-C/E/F/G/I (Homo sapiens, UniProt P62807)` — result for interaction screen: “cross-linked”.
`H2BC17 (Homo sapiens, UniProt P23527)` — result for interaction screen: “cross-linked”.
`H3-4 (Homo sapiens, UniProt Q16695)` — result for interaction screen: “cross-linked”.
`H2BC11 (Homo sapiens, UniProt P06899)` — result for interaction screen: “cross-linked”.
`H2BC5 (Homo sapiens, UniProt P58876)`: interaction screen “cross-linked”.

Study 2 — effect on: cell-free assay; method: competition with immobilised ligand; concentration: 1 µM
Compound: O=C(NS(=O)(=O)c1ccc(NCC2CCOCC2)c([N+](=O)[O-])c1)c1ccc(N2CCN(Cc3ccc(C(F)(F)F)cc3-c3ccc(Cl)cc3)CC2)cc1Oc1cnc2[nH]ccc2c1
It gave 85% for remaining binding (MAPK9 (Homo sapiens, UniProt P45984)).
It gave 86% for remaining binding (PIK3CG (Homo sapiens, UniProt P48736)).
It gave 79% for remaining binding (TSSK3 (Homo sapiens, UniProt Q96PN8)).
RET (Homo sapiens, UniProt P07949) — remaining binding: 96%.
MINK1 (Homo sapiens, UniProt Q8N4C8) — remaining binding: 84%.
Ribosomal protein S6 kinase alpha-1, C-terminal kinase domain (RPS6KA1, Homo sapiens, UniProt Q15418) — remaining binding: 100%.
MAP3K2 (Homo sapiens, UniProt Q9Y2U5) — remaining binding: 100%.
It gave 67% for remaining binding (CDK16 (Homo sapiens, UniProt Q00536)).
It gave 100% for remaining binding (TLK1 (Homo sapiens, UniProt Q9UKI8)).
It gave 100% for remaining binding (EPHA3 (Homo sapiens, UniProt P29320)).

Study 3 — host: human; sample: microsomes or S9; concentration: 2 µM; time: 0.5 h
The remaining compound of `CCc1ccc(/C=N/n2c(C)nnc2-n2nc(C)cc2C)cc1` is reported as 4.17%.
`COc1ccc(C2(CNC(=O)C(F)(F)F)CCCCC2)cc1` gave a remaining compound of 3.54%.
`CC1c2cccn2-c2sc3c(c2CN1C(=O)NC1CCCC1)CCCC3` (centres unmarked) gave a remaining compound of < 1%.

Study 4 — target: CCNB1, cyclin fold, Cln2 fusion (human); method: yeast growth competition, sequencing; sample: yeast; notes: weak parent motif; baseline: not given; reading: higher = stronger binding
Starting sequence: SAMHD1 docking peptide (human); ASKSRVQLFKDDP
Under “normalised enrichment score”, `L8E` is recorded as 0.233.
For `K10R`, “normalised enrichment score” read 0.192.
For `Q7G`, “normalised enrichment score” read 0.0994.
`K10T`: “normalised enrichment score” 0.339.
Under “normalised enrichment score”, `Q7M` is recorded as -0.195.
`D12Q`: “normalised enrichment score” 0.0131.
`S4P`: “normalised enrichment score” 0.0649.
`L8F`: “normalised enrichment score” 0.235.

Some of these lines once more (study 3):
The remaining compound of `CCc1ccc(/C=N/n2c(C)nnc2-n2nc(C)cc2C)cc1` is reported as 4.17%.
`COc1ccc(C2(CNC(=O)C(F)(F)F)CCCCC2)cc1` gave a remaining compound of 3.54%.
`CC1c2cccn2-c2sc3c(c2CN1C(=O)NC1CCCC1)CCCC3` (centres unmarked) gave a remaining compound of < 1%.
